Measured values pooled from the literature.
Numbered parts are unrelated; each lists some results of a single study.
Sequence of UniProt Q13464 (whole entry, looked up): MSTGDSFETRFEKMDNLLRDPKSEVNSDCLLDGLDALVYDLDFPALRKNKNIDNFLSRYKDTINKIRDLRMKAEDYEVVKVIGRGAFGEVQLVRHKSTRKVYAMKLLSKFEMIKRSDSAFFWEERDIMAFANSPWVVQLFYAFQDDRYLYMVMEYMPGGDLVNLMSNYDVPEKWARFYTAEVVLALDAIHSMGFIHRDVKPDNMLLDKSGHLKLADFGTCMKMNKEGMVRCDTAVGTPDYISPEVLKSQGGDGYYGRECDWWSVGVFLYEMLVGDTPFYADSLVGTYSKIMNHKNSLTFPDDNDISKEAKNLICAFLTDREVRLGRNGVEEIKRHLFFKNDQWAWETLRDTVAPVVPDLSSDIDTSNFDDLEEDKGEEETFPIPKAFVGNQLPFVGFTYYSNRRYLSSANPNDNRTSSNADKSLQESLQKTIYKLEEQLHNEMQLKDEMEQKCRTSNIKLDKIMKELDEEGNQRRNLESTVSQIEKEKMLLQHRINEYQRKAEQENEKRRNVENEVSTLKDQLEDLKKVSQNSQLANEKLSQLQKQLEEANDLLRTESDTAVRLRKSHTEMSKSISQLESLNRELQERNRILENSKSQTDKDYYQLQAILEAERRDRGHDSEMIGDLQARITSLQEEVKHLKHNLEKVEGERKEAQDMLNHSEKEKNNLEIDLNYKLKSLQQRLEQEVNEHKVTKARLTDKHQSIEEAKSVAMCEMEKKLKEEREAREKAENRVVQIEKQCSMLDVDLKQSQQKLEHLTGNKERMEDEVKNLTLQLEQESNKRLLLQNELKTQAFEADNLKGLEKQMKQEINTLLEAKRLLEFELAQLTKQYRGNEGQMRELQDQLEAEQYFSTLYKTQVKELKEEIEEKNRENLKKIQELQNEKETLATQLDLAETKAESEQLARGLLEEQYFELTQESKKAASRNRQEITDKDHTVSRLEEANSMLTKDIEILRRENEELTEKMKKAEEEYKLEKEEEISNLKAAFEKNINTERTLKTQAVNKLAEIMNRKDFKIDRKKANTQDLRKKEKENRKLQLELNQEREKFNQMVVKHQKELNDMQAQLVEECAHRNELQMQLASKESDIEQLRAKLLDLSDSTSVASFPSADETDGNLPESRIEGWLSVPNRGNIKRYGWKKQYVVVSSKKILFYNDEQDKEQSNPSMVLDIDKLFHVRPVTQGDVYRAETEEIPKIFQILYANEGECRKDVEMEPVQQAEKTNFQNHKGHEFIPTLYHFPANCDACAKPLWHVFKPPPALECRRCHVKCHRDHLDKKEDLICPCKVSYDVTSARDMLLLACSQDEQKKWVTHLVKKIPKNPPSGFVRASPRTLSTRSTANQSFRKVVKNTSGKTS
Sequence of UniProt Q16539 (whole entry, looked up): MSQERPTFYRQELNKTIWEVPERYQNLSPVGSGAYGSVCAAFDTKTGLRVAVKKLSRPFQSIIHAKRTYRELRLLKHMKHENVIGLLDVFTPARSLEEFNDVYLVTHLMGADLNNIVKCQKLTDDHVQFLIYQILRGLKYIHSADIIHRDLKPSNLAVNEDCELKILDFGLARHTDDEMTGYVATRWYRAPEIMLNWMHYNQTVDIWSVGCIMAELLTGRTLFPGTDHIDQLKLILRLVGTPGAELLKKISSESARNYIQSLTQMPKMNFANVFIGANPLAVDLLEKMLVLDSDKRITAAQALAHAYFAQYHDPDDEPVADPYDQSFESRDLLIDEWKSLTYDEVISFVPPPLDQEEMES
Sequence of UniProt P28482 (whole entry, looked up): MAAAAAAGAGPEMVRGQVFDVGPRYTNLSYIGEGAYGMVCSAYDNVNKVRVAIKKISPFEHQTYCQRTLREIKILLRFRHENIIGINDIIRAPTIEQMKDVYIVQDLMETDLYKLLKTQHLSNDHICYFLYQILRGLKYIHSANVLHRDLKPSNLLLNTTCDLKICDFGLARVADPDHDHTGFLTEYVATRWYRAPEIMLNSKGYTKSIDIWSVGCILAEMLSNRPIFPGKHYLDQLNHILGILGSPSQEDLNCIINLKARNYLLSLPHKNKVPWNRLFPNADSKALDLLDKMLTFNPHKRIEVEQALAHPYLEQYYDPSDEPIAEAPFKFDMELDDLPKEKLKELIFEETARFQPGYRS
Sequence of UniProt O14733 (whole entry, looked up): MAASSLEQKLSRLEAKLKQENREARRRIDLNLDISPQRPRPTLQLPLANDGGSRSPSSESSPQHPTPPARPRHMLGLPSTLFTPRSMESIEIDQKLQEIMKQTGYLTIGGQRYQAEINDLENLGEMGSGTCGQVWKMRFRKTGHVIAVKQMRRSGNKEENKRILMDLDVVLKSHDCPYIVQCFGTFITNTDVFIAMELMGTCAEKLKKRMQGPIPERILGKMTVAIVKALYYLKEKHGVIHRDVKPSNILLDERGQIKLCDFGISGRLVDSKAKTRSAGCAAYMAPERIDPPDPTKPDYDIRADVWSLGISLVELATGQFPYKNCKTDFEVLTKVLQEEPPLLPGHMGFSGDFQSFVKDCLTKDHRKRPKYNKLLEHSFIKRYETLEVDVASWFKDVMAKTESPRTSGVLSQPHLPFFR
Sequence of UniProt Q9UKE5 (whole entry, looked up): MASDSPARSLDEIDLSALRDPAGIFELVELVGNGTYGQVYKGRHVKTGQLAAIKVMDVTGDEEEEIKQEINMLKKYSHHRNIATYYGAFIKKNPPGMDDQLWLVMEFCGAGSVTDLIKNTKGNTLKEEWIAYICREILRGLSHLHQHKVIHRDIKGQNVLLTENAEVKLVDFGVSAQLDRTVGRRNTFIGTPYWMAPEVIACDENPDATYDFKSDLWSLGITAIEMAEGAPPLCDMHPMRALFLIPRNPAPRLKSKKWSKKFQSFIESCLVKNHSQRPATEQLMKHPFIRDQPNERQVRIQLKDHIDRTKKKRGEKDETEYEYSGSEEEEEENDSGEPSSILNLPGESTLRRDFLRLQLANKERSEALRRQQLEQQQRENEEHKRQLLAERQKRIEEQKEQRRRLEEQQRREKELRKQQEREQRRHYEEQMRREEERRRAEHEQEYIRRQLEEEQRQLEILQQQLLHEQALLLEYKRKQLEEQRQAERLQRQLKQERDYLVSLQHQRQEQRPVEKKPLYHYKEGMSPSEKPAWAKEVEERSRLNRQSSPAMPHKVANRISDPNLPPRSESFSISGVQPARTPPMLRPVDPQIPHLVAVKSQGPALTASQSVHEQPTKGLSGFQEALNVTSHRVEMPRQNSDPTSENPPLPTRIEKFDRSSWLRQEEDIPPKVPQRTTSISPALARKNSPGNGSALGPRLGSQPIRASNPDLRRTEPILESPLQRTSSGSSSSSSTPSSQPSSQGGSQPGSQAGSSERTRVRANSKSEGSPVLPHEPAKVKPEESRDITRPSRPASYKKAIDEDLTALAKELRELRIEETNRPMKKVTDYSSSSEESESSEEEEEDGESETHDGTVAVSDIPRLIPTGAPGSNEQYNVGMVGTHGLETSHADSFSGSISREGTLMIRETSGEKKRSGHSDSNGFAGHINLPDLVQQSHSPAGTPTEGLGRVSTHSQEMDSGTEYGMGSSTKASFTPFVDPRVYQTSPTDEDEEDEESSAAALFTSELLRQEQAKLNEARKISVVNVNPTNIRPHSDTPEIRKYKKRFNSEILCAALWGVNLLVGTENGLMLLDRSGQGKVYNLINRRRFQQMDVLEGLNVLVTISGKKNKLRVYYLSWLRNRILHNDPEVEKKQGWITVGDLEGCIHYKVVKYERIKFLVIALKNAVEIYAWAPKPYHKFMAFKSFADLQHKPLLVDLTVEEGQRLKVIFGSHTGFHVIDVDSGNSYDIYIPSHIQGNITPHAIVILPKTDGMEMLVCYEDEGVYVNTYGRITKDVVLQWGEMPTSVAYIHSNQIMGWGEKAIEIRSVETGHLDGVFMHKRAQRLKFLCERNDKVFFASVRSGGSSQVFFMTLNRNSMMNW
Sequence of UniProt O75676 (whole entry, looked up): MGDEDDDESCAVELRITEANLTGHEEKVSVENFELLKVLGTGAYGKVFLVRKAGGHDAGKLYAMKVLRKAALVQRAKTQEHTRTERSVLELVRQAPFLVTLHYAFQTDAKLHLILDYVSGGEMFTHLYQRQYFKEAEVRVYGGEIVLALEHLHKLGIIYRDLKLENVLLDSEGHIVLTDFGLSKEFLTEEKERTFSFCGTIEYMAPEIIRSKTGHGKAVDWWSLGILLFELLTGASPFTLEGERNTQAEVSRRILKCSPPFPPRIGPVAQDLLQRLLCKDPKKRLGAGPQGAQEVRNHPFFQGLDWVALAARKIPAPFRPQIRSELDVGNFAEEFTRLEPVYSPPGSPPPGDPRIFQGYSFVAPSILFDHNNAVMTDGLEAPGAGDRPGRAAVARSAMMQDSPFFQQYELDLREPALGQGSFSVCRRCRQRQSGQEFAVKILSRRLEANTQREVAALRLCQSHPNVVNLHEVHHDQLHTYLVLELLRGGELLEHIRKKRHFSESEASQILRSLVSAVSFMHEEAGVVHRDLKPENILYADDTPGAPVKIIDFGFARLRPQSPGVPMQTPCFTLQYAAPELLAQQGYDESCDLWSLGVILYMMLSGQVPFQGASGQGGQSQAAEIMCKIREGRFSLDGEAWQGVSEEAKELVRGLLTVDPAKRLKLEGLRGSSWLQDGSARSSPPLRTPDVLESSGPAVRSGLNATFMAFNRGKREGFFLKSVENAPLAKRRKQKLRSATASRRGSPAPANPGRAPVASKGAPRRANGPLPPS
Sequence of UniProt P0C264 (whole entry, looked up): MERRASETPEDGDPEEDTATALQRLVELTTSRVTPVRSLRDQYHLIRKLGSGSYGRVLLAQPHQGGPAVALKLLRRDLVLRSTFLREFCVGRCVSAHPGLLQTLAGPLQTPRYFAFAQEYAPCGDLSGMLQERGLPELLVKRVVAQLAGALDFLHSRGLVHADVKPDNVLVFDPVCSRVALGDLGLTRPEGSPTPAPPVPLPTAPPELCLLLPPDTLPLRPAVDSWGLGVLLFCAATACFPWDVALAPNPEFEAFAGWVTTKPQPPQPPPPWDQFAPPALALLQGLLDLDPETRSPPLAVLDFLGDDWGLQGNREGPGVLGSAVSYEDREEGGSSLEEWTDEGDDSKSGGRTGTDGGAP

Study 1 — effect on: cell-free assay; technique: competition with immobilised ligand; tested at: 1 µM
Compound: CCOCCn1cc(C(=O)Nc2ccc(-n3nc(-c4cccnc4)cc3C(F)(F)F)cn2)ccc1=O
| target | remaining binding [%] |
| --- | --- |
| TNIK (Homo sapiens, UniProt Q9UKE5) | 100 |
| MAP2K2 (Homo sapiens, UniProt P36507) | 94 |
| ROCK1 (Homo sapiens, UniProt Q13464) | 74 |
| Tyrosine-protein kinase ABL1, non-phosphorylated (ABL1, Homo sapiens, UniProt P00519, H396P) | 100 |
| PIK3C2B (Homo sapiens, UniProt O00750) | 72 |
| Ribosomal protein S6 kinase alpha-4, C-terminal kinase domain (RPS6KA4, Homo sapiens, UniProt O75676) | 80 |
| PRKCD (Homo sapiens, UniProt Q05655) | 100 |
| CDKL1 (Homo sapiens, UniProt Q00532) | 80 |
| SBK3 (Homo sapiens, UniProt P0C264) | 78 |
| MYLK (Homo sapiens, UniProt Q15746) | 73 |
| MAP2K7 (Homo sapiens, UniProt O14733) | 85 |
| YES1 (Homo sapiens, UniProt P07947) | 85 |
| KIT (Homo sapiens, UniProt P10721, A829P) | 100 |
| MAP4K5 (Homo sapiens, UniProt Q9Y4K4) | 95 |

Study 2 — Structure (SMILES): CC(C)N(CCC(=O)c1ccc2ccccc2c1)Cc1ccccc1; effect on: enzyme activity; action: inhibitor; tested at: 0.5 µM; relative to: control
| target | remaining activity |
| --- | --- |
| KDR (Homo sapiens, UniProt P35968) | 98.9% |
| Myosin-IIIb (MYO3B, Homo sapiens, UniProt Q8WXR4) | 93.5% |
| Cyclin-dependent kinase 1, with cyclin A (CDK1, Homo sapiens, UniProt P06493) | 92.9% |
| MARK2 (Homo sapiens, UniProt Q7KZI7) | 97.9% |
| TLK2 (Homo sapiens, UniProt Q86UE8) | 104% |
| MAPK1 (Homo sapiens, UniProt P28482) | 87.4% |
| GRK4 (Homo sapiens, UniProt P32298) | 94.9% |
| MARK4 (Homo sapiens, UniProt Q96L34) | 89.3% |
| AKT2 (Homo sapiens, UniProt P31751) | 96.5% |
| MAPK14 (Homo sapiens, UniProt Q16539) | 94.4% |
| DCLK2 (Homo sapiens, UniProt Q8N568) | 98.3% |
| CLK4 (Homo sapiens, UniProt Q9HAZ1) | 91.7% |
| ROCK1 (Homo sapiens, UniProt Q13464) | 98.6% |
| TXK (Homo sapiens, UniProt P42681) | 97.1% |

Study 3 — organism: Plasmodium berghei; action: inhibitor; cells: Huh-7; strain: GFP-expressing sporozoites, liver stage; tested at: 10 µM; time: 24 h; relative to: untreated control
| SMILES | infection rate |
| --- | --- |
| CC1(C)O[C@@H]2C[C@H]3[C@@H]4CCC5=CC(=O)C=C[C@]5(C)[C@H]4[C@@H](O)C[C@]3(C)[C@]2(C(=O)CO)O1 | 106% |
| CCCC(C(=O)OCCN(CC)CC)(c1ccccc1)c1ccccc1 | 7.36% |
| CC(=O)OCC1=C(C(=O)O)N2C(=O)[C@@H](NC(=O)CSc3ccncc3)[C@H]2SC1 | 106% |
| CCC(=O)OCC(=O)[C@@]1(OC(=O)CC)[C@H](C)C[C@H]2[C@H]3[C@H]([C@@H](O)C[C@@]21C)[C@@]1(C)C=CC(=O)C=C1C[C@H]3Cl | 92.5% |

Other studies, line by line
| Structure (SMILES) | test system | setting | endpoint | result |
| --- | --- | --- | --- | --- |
| CC(C)n1cnc(-c2ccc(F)cc2)c1-c1ncc(C(=O)Nc2ccc(N3CCN(C)CC3)cc2)[nH]1 | IPF patients | 30 mg once daily, adverse event | Haemoptysis incidence | 0% |

Some of these lines once more (study 2):
| target | remaining activity |
| --- | --- |
| MARK2 (Homo sapiens, UniProt Q7KZI7) | 97.9% |
| TLK2 (Homo sapiens, UniProt Q86UE8) | 104% |
| MAPK1 (Homo sapiens, UniProt P28482) | 87.4% |
| GRK4 (Homo sapiens, UniProt P32298) | 94.9% |
| MARK4 (Homo sapiens, UniProt Q96L34) | 89.3% |
| AKT2 (Homo sapiens, UniProt P31751) | 96.5% |
